Measured values of several laboratories.
A part holds a random share of what one study measured. Changes are numbered by the printed parent chain.

Block 1 — technique: protein-binding microarray; molecule type: double-stranded DNA, one strand shown; medium: in vitro; tested at: 940 nM top; setting: 60-bp whole probe; added: salmon DNA 0.4 mg/ml; baseline: random background probes; reading: higher = stronger binding; shared flanks, not repeated: GCCTAGCAC … GTCTTGATTCGCTTGACGCTGCTG
Target: Interferon regulatory factor 5, full length, phosphomimetic (IRF5, Homo sapiens, UniProt Q13568-2, residues 1-514, S451D/S453D/S456D/S462D)
Under “fitted relative affinity”, `GACGATATCAGTCTCAAGACGTGCTAG` is recorded as 0.135 z-score.
`GACGGTATCGACACTGGCGACGTGCTA`: “fitted relative affinity” 3.94 z-score.
Under “fitted relative affinity”, `GACGGTTTCCTGATCCTGACGTGCTAG` is recorded as 0.528 z-score.
Under “fitted relative affinity”, `TCATGCTTGTGTCTGGGACTGTGCTAG` is recorded as -0.407 z-score.
`TTAGATCTCAGTAACGATTAGTGCTAG`: “fitted relative affinity” 0.265 z-score.
`TCATCTCTGTTTATGTCACTGTGCTAG`: “fitted relative affinity” 2.23 z-score.
`TCCTTTTAATTTTTAACGAGGTGCTAG` — result for “fitted relative affinity”: 0.154 z-score.

Block 2 — target: CCNB2, cyclin fold, Cln2 fusion (human); technique: yeast growth competition, sequencing; medium: yeast; setting: weak parent motif; baseline: not given; reading: higher = stronger binding
Starting sequence: CDC25A docking peptide (human); PPHRRRLLFACSP
`P2N`: “normalised enrichment score” 0.57.
`L7S` — result for “normalised enrichment score”: 0.332.
`P13L`: “normalised enrichment score” 0.456.
For `F9S`, “normalised enrichment score” read 0.946.

Block 3 — technique: DHFR PCA, deep sequencing; medium: yeast; added: (+)-ABA 2500 µM; baseline: wild-type fitted maximum; reading: higher = stronger binding
Target: ABI1, truncated, D143A, DHFR fusion (Arabidopsis thaliana)
Setting: methotrexate growth selection, single substitutions
Starting sequence: PYL1, truncated, DHFR fusion (Arabidopsis thaliana); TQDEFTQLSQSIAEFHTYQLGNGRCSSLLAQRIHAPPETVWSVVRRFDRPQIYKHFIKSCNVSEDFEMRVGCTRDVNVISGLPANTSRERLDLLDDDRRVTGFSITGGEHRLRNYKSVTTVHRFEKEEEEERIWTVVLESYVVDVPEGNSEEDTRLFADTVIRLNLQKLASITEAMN
`F124C`: “relative binding score” 103%.
Under “relative binding score”, `R74S` is recorded as -3.21%.
For `T101Y`, “relative binding score” read 91.3%.
For `T120D`, “relative binding score” read 22.2%.

Mixed results
`PhoQ, residues 284 288 289 292 302 303 SQSLSM` has a fold induction of 10.5 (PhoP, residues 12 14 15 18 19 IQSYL (Escherichia coli, UniProt P23836); Sort-seq, measured: YFP reporter; E. coli; PhoQ-PhoP variant library, added: 10 µM Mg2+; baseline: high Mg2+ state, higher = stronger signaling).

Excerpt of the above (block 1):
`TCATCTCTGTTTATGTCACTGTGCTAG`: “fitted relative affinity” 2.23 z-score.
